Published values gathered from unrelated publications.
Each line is one published result; not all experiments were run side by side.

CC(=O)O[C@H]1C[C@H](O[C@H]2[C@@H](O)C[C@H](O[C@H]3[C@@H](O)C[C@H](O[C@H]4CC[C@@]5(C)[C@H](CC[C@@H]6[C@@H]5C[C@@H](O)[C@]5(C)[C@@H](C7=CC(=O)OC7)CC[C@]65O)C4)O[C@@H]3C)O[C@@H]2C)O[C@H](C)[C@H]1O[C@@H]1O[C@H](CO)[C@@H](O)[C@H](O)[C@H]1O  CC50 (primary human keratinocytes uninfected; live/dead staining; 20 h): 0.33 µM
CC[C@H](C)[C@H](NC(=O)[C@H](CO)NC(=O)[C@H](CC(N)=O)NC(=O)[C@H](CC(C)C)NC(=O)[C@H](CCCNC(=N)N)NC(=O)[C@H](CC(N)=O)NC(=O)[C@H](CS)NC(=O)[C@H](CCCCN)NC(=O)[C@@H](NC(=O)[C@H](CCCCN)NC(=O)[C@H](CC(C)C)NC(=O)[C@H](CC(N)=O)NC(=O)[C@@H](NC(=O)[C@@H]1CCCN1C(=O)[C@@H]1CCCN1C(=O)[C@H](Cc1ccc(O)cc1)NC(=O)[C@H](CCCCN)NC(=O)[C@H](CC(N)=O)NC(=O)[C@@H](NC(=O)[C@H](C)NC(=O)[C@H](CCCNC(=N)N)NC(=O)[C@H](CCCNC(=N)N)NC(=O)[C@@H](NC(=O)[C@H](CO)NC(=O)[C@H](CC(N)=O)NC(=O)[C@@H](NC(=O)[C@H](Cc1ccccc1)NC(=O)[C@H](CO)NC(=O)[C@H](CCCCN)NC(=O)[C@@H](NC(=O)[C@H](Cc1ccccc1)NC(=O)[C@H](CCCCN)NC(=O)[C@@H](N)C(C)C)C(C)C)[C@@H](C)CC)[C@@H](C)CC)[C@@H](C)CC)[C@@H](C)CC)[C@@H](C)CC)C(=O)O  CC50 (HaCaT; cell viability, MTT): 38.5 µM
COc1ccc2c(O[C@@H]3C[C@H]4C(=O)N[C@]5(C(=O)NS(=O)(=O)C6CC6)C[C@H]5/C=C\CCCCN(C)C(=O)[C@@H]4C3)cc(-c3nc(C(C)C)cs3)nc2c1C  CC50 (HEK293T; cell viability, MTT; 48 (unit not given)): > 50 µM
CC[C@H](C)[C@H](NC(=O)[C@H](C)NC(=O)[C@H](CCCCN)NC(=O)[C@H](CC(N)=O)NC(=O)[C@@H](NC(=O)[C@H](CCCCN)NC(=O)[C@H](CCCCN)NC(=O)[C@H](CC(C)C)NC(=O)[C@@H](NC(=O)[C@H](CCCCN)NC(=O)CNC(=O)[C@@H](NC(=O)CNC(=O)[C@H](CC(N)=O)NC(=O)[C@@H](NC(=O)CNC(=O)[C@H](Cc1ccc(O)cc1)NC(=O)[C@H](CCCNC(=N)N)NC(=O)[C@H](CCSC)NC(=O)[C@@H](NC(=O)[C@H](CCSC)NC(=O)[C@H](C)NC(=O)[C@H](CC(C)C)NC(=O)[C@H](CCC(N)=O)NC(=O)[C@H](CCCCN)NC(=O)[C@H](CCCCN)NC(=O)[C@@H](NC(=O)[C@@H](N)CCCNC(=N)N)[C@@H](C)O)C(C)C)C(C)C)C(C)C)[C@@H](C)CC)[C@@H](C)CC)C(=O)N[C@H](C(=O)N[C@@H](CO)C(=O)N[C@@H](CCCCN)C(=O)N[C@@H](CCCCN)C(=O)N[C@@H](CC(N)=O)C(=O)N[C@@H](CCCCN)C(=O)N[C@@H](CC(=O)O)C(=O)N[C@H](C(=O)N[C@H](C(=O)N[C@H](C(=O)N[C@H](C(=O)N[C@@H](C)C(=O)N[C@@H](CC(N)=O)C(=O)N[C@@H](C)C(=O)N[C@H](C(=O)N[C@@H](Cc1ccccc1)C(=O)N[C@H](C(=O)N[C@@H](CCCCN)C(=O)O)C(C)C)C(C)C)C(C)C)[C@@H](C)O)C(C)C)[C@@H](C)CC)C(C)C  CC50 (HaCaT; cell viability, MTT): 61.7 µM
CN1CCC(Cc2cccc(CNC3(c4ccc(F)cc4O)CCCC3)c2)CC1  CC50 (BT-474; CyQuant): inactive
Cc1cc(C)c(/C=C/c2nc(N)[nH]c(=O)c2Br)c(C)c1  CC50 (CRFK; cytotoxicity, MTS): 58 µM
CC[C@H](C)[C@H](N)C(=O)N1CCC[C@H]1C(=O)N[C@@H](CC(C)C)C(=O)N[C@@H](Cc1ccccc1)C(=O)N[C@@H](CCCNC(=N)N)C(=O)N[C@@H](CCCNC(=N)N)C(=O)N[C@@H](Cc1ccccc1)C(=O)NCC(=O)N[C@@H](CCCNC(=N)N)C(=O)N[C@@H](CCC(N)=O)C(=O)N[C@@H](CCCNC(=N)N)C(=O)N[C@@H](CCCCN)C(=O)N[C@H](C(=O)NCC(=O)NCC(=O)N[C@@H](CCCNC(=N)N)C(=O)NCC(=O)N[C@@H](CCCNC(=N)N)C(=O)N[C@H](C(=O)N[C@H](C(=O)N[C@@H](CO)C(=O)N1CCC[C@H]1C(=O)N[C@@H](Cc1ccc(O)cc1)C(=O)N[C@@H](CCCNC(=N)N)C(=O)N[C@H](C(=O)N1CCC[C@H]1C(=O)N[C@H](C(=O)N[C@@H](CC(C)C)C(=O)N[C@@H](CCCNC(=N)N)C(=O)N[C@@H](CCCNC(=N)N)C(=O)N[C@@H](Cc1c[nH]cn1)C(=O)N[C@@H](CCCNC(=N)N)C(=O)N[C@@H](Cc1ccc(O)cc1)C(=O)N[C@@H](CO)C(=O)N[C@H](C(=O)N[C@@H](Cc1ccccc1)C(=O)N[C@@H](CCCNC(=N)N)C(=O)O)[C@@H](C)CC)C(C)C)[C@@H](C)O)[C@@H](C)CC)[C@@H](C)CC)[C@@H](C)CC  CC50 (HaCaT; cell viability, MTT): 56.6 µM
Nc1nc(CCc2ccccc2)c(Br)c(=O)[nH]1  CC50 (CRFK; cytotoxicity, MTS): > 100 µM
CCCC[C@H](NC(=O)[C@@H]1[C@@H]2[C@H](CN1C(=O)[C@@H](NC(=O)NC1(CS(=O)(=O)C(C)(C)C)CCCCC1)C(C)(C)C)C2(C)C)C(=O)C(=O)NC1CC1  CC50 (HEK293T; cell viability, MTT; 48 (unit not given)): 72 µM
CC[C@H](C)[C@H](NC(=O)[C@H](CCSC)NC(=O)[C@H](Cc1c[nH]cn1)NC(=O)[C@@H](NC(=O)[C@H](CC(C)C)NC(=O)[C@H](CO)NC(=O)[C@H](CO)NC(=O)[C@H](CCCCN)NC(=O)[C@H](Cc1ccc(O)cc1)NC(=O)[C@H](CCCCN)NC(=O)[C@H](CC(N)=O)NC(=O)[C@H](CO)NC(=O)[C@H](CCCCN)NC(=O)[C@H](CC(C)C)NC(=O)[C@@H](NC(=O)[C@H](CC(C)C)NC(=O)[C@H](CC(C)C)NC(=O)[C@H](CCSC)NC(=O)[C@H](CCCNC(=N)N)NC(=O)[C@H](CCCCN)NC(=O)[C@H](CCCNC(=N)N)NC(=O)[C@@H](N)Cc1c[nH]c2ccccc12)[C@@H](C)O)C(C)C)C(=O)N[C@@H](CC(C)C)C(=O)NCC(=O)N[C@@H](CC(C)C)C(=O)N[C@@H](CO)C(=O)N[C@@H](CC(C)C)C(=O)N[C@@H](CCC(N)=O)C(=O)N[C@H](C(=O)N[C@@H](CS)C(=O)N[C@@H](CC(C)C)C(=O)N[C@H](C(=O)N[C@@H](CCCCN)C(=O)O)[C@@H](C)O)[C@@H](C)CC  CC50 (HaCaT; cell viability, MTT): 163 µM
Nc1nc(O)c2ncn(COC(CO)CO)c2n1  CC50 (CRFK; cytotoxicity, MTS): > 100 µM
C=C[C@@H]1C[C@]1(NC(=O)[C@@H]1C[C@@H]2CN1C(=O)[C@H](C(C)(C)C)NC(=O)O[C@@H]1C[C@H]1CCCCCc1nc3ccc(OC)cc3nc1O2)C(=O)NS(=O)(=O)C1CC1  CC50 (HEK293T; cell viability, MTT): > 50 µM
C=C(C)[C@@]12C[C@@H](COC(=O)c3ccccc3)[C@@]34OC5(O[C@@H]1[C@@H]3[C@@H]1O[C@]1(CO)[C@@H](O)[C@@]1(O)[C@H]4[C@H]([C@H](C)[C@@H]1OC(=O)c1ccccc1)[C@H](C)CCCCCC[C@H]5O)O2  CC50 (MT-4; cytotoxicity): > 1.29 µM

Some of these lines once more:
COc1ccc2c(O[C@@H]3C[C@H]4C(=O)N[C@]5(C(=O)NS(=O)(=O)C6CC6)C[C@H]5/C=C\CCCCN(C)C(=O)[C@@H]4C3)cc(-c3nc(C(C)C)cs3)nc2c1C  CC50 (HEK293T; cell viability, MTT; 48 (unit not given)): > 50 µM
CC[C@H](C)[C@H](NC(=O)[C@H](CCSC)NC(=O)[C@H](Cc1c[nH]cn1)NC(=O)[C@@H](NC(=O)[C@H](CC(C)C)NC(=O)[C@H](CO)NC(=O)[C@H](CO)NC(=O)[C@H](CCCCN)NC(=O)[C@H](Cc1ccc(O)cc1)NC(=O)[C@H](CCCCN)NC(=O)[C@H](CC(N)=O)NC(=O)[C@H](CO)NC(=O)[C@H](CCCCN)NC(=O)[C@H](CC(C)C)NC(=O)[C@@H](NC(=O)[C@H](CC(C)C)NC(=O)[C@H](CC(C)C)NC(=O)[C@H](CCSC)NC(=O)[C@H](CCCNC(=N)N)NC(=O)[C@H](CCCCN)NC(=O)[C@H](CCCNC(=N)N)NC(=O)[C@@H](N)Cc1c[nH]c2ccccc12)[C@@H](C)O)C(C)C)C(=O)N[C@@H](CC(C)C)C(=O)NCC(=O)N[C@@H](CC(C)C)C(=O)N[C@@H](CO)C(=O)N[C@@H](CC(C)C)C(=O)N[C@@H](CCC(N)=O)C(=O)N[C@H](C(=O)N[C@@H](CS)C(=O)N[C@@H](CC(C)C)C(=O)N[C@H](C(=O)N[C@@H](CCCCN)C(=O)O)[C@@H](C)O)[C@@H](C)CC  CC50 (HaCaT; cell viability, MTT): 163 µM
